Measured values collected from several papers.
Numbers after ± are the reported error.

Protein sequences, listed by entry. Tags and fused reporters are not part of them. Residues count along the entry.
UniProt P17787, whole entry, looked up: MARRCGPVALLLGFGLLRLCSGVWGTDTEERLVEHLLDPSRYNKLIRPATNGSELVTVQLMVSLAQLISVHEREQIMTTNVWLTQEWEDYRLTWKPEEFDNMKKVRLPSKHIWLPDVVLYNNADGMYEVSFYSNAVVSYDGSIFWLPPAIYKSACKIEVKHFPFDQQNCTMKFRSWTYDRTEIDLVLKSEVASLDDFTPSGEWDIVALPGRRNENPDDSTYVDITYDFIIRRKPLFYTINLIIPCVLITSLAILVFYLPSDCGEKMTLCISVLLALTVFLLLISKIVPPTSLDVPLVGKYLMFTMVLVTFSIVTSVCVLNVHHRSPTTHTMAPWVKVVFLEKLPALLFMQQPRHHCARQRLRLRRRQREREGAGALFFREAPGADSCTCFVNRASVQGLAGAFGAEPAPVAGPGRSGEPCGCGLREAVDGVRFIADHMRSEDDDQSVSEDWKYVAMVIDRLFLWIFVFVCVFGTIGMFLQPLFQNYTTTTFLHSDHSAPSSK
UniProt P32297, whole entry, looked up: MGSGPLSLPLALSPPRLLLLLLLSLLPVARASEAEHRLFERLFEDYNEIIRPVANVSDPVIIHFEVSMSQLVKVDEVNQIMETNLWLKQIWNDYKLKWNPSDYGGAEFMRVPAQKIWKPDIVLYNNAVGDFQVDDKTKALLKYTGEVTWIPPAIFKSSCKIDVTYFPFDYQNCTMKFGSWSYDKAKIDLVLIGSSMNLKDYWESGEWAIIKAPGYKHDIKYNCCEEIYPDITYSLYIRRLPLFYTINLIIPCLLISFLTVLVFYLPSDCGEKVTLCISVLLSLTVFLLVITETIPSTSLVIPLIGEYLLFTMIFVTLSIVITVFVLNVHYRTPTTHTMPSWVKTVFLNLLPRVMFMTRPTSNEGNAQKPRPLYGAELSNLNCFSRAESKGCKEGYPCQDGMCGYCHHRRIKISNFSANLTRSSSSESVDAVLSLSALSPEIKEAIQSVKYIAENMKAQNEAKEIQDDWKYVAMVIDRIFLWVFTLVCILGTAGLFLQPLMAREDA
UniProt Q05901, whole entry, looked up: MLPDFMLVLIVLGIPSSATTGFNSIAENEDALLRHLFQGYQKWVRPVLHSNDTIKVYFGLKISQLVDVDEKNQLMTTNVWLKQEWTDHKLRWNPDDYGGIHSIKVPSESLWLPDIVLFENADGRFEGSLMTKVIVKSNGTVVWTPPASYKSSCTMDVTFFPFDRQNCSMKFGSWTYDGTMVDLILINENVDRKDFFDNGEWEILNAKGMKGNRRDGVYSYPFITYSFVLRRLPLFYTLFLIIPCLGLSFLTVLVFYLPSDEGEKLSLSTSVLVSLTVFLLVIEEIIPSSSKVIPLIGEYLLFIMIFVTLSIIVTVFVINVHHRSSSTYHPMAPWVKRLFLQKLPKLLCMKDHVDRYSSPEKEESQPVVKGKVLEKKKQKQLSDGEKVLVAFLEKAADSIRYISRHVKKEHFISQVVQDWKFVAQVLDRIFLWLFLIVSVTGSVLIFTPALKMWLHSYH
UniProt Q15825, whole entry M241L/F253L/V300I/V303I/V320I/I327V/R339S/K347N, looked up: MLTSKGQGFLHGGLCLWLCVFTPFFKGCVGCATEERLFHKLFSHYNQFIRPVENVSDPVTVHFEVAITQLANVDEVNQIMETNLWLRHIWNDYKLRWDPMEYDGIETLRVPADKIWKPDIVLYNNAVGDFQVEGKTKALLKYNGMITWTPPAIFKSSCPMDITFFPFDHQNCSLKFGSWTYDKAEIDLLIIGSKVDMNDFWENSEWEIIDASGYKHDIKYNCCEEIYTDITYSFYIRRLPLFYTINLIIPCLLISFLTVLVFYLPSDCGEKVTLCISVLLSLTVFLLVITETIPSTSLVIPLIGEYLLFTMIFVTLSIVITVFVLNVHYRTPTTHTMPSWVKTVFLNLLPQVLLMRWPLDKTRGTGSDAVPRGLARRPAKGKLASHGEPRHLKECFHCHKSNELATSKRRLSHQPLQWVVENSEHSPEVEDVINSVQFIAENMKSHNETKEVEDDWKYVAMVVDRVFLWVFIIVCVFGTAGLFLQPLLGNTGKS
UniProt P37136, 32-614 limits assumed: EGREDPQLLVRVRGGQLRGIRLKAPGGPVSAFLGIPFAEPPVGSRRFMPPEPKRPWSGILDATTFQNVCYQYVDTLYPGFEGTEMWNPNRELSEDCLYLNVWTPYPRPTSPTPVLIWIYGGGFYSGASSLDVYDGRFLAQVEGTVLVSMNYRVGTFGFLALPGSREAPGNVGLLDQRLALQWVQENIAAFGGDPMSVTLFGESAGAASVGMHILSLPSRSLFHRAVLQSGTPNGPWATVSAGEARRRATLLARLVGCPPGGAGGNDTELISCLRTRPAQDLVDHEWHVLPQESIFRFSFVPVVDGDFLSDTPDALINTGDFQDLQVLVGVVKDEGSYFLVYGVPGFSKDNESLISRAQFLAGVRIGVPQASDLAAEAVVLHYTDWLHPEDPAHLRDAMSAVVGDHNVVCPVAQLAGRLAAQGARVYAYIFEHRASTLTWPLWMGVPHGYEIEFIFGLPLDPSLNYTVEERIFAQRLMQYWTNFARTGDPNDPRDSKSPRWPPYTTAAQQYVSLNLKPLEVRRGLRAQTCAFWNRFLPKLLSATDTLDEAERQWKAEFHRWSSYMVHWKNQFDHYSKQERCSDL

SMILES = CC[C@H](C)[C@@H]1NC(=O)[C@H](CCC(=O)O)NC(=O)[C@@H]2CCCN2C(=O)[C@H](Cc2c[nH]cn2)NC(=O)[C@H](CCCNC(=N)N)NC(=O)[C@H](C(C)C)NC(=O)[C@H](CC(N)=O)NC(=O)[C@@H]2CSSC[C@H](NC(=O)CN)C(=O)N[C@@H](CSSC[C@@H](C(N)=O)NC1=O)C(=O)N[C@@H](CO)C(=O)N[C@@H](Cc1c[nH]cn1)C(=O)N1CCC[C@H]1C(=O)N[C@@H](C(C)C)C(=O)N2; target or system = Neuronal acetylcholine receptor; alpha3/alpha6/beta2/beta3 (Homo sapiens, UniProt P17787+P32297+Q05901+Q15825); test = ion current, antagonist, two-electrode voltage clamp; test system = Xenopus oocytes; conditions = human, added: ACh 100 µM; quantity = IC50; value = 135 nM
SMILES = CC(=O)N[C@@H](CO)C(=O)N[C@@H](C)C(=O)N[C@@H](CO)C(=O)N[C@@H](C)C(=O)N[C@@H](CO)C(=O)N[C@@H](Cc1ccc(OP(=O)(O)O)cc1)C(=O)N[C@@H](CO)C(=O)N[C@@H](C)C(=O)N[C@@H](CO)C(=O)N[C@@H](C)C(N)=O; target or system = SHP-2 catalytic domain (ΔSH2); test = phosphatase activity, substrate; conditions = pH 7.4; quantity = kcat; value = 42 ± 5 s⁻¹
SMILES = CCCCCCCCCCCCCC#CC(=O)O; target or system = Plasmodium berghei; test system = Huh-7; conditions = 2 h post-infection, liver stage, luciferase reporter; quantity = IC50; value = 0.48 µg/mL
SMILES = CC(=O)N[C@@H](C)C(=O)N[C@@H](Cc1ccc(O)cc1)C(=O)N[C@H](C(=O)N[C@@H](CCC(=O)O)C(=O)N[C@@H](Cc1ccc(OP(=O)(O)O)cc1)C(=O)N[C@H](C(=O)N[C@@H](Cc1ccc(OP(=O)(O)O)cc1)C(=O)N[C@@H](C)C(=O)N[C@@H](C)C(N)=O)[C@@H](C)O)[C@@H](C)O; target or system = SHP-1 catalytic domain (ΔSH2); test = phosphatase activity, substrate; conditions = pH 7.4; quantity = kcat; value = 17 ± 1 s⁻¹
SMILES = N#Cc1c(-c2ccc(Cl)cc2Cl)n(-c2nc(-c3ccc(Cl)cc3)c3c(NC(=O)c4ccccc4)nnc-3[nH]2)[nH]c1=O; target or system = HL-60(TB); conditions = 10 µM; quantity = cell growth; value = 7.37%
SMILES = COc1cc(C2C(C#N)=C(N)Oc3c2c(C)nn3-c2ccc(Cl)cc2)ccc1O (stereo not shown); target or system = Vero E6; test = MTT; conditions = 25 µM; quantity = viability; value = 54.4%
SMILES = O=C(Nc1cccc(C2=NCCN2)c1)c1ccc(-c2ccc(C(=O)Nc3cccc(C4=NCCN4)c3)cc2)cc1; target or system = Trypanosoma brucei; test = safranine fluorescence; test system = procyclic form; conditions = 5 µM, unit not given; scale = higher = stronger uncoupling; quantity = membrane potential change; value = 81 ± 2.9
SMILES = Cc1ccc2[nH]cc(CNCC3(N4CCCC4)COC3)c2c1; target or system = GBM6; conditions = 30 µM, 48 h; scale = relative to: DMSO; quantity = viability; value = 101%
SMILES = Cc1nn(-c2ccc(Cl)cc2)c2c1C(c1ccc([N+](=O)[O-])cc1)C(C#N)=C(N)O2 (stereo not shown); target or system = Vero E6; conditions = 1.6 µM; quantity = viability; value = 74.3%
SMILES = CC(C)CC(NC(=O)C(Cc1ccccc1)NC(=O)c1cnc(C(=O)NC(Cc2ccccc2)C(=O)NC(CC(C)C)B(O)O)cn1)B(O)O (stereo not shown); target or system = MM1.S; test = cell viability, CellTiter-Glo; conditions = 48 h; quantity = IC50; value = 7.5 nM
SMILES = COP(=O)(OC)Oc1ccc([N+](=O)[O-])cc1Cl; target or system = Ache (Rattus norvegicus, UniProt P37136); test = enzyme activity, inhibitor, discontinuous Ellman; test system = rat, postnatal day 70, rat skeletal muscle homogenate; conditions = 15 min, 37 °C; quantity = IC50; value = 92 nM
SMILES = CC1(C)N=C(N)N=C(N)N1c1cccc(OCCCc2ccccc2)c1; target or system = Pseudomonas aeruginosa; test = broth microdilution; test system = PAO1; conditions = without thymidine; quantity = MIC90; value = > 128 µM
SMILES = CC(C)C1CCC(N2CCC3(CC2)C(=O)N(CCNS(N)(=O)=O)Cc2ccccc23)CC1 (stereo not shown); test = warm water tail withdrawal; test system = rhesus monkey; conditions = subcutaneous, 0.03 mg/kg; quantity = antinociception duration; value = ≤ 6 h
SMILES = CC/C=C\C/C=C\CCC/C=C/C=C/C=C\CCCC(=O)O; target or system = HL-60 (p53-null); test = cell growth, MTT; conditions = 24 h; quantity = LD50; value = 12.5 µM
SMILES = Cc1cc(Nc2ccc(S(F)(F)(F)(F)F)cc2)n2nc(C(C)(F)F)nc2n1; target or system = Plasmodium falciparum; test = parasite growth, SYBR Green; test system = Ugandan patient field isolates, Albumax-based medium; conditions = 72 h; quantity = EC50; value = 0.77 nM
SMILES = CCCC[C@H](NC(=O)[C@H](Cc1c[nH]c2ccccc12)NC(=O)CNC(=O)[C@@H](CCCC)NC(=O)[C@@H](N)Cc1ccc(O)cc1)C(=O)N[C@@H](CC(=O)O)C(=O)N[C@@H](Cc1ccccc1)C(N)=O; test = CCK antagonist; test system = male Sprague Dawley rat; conditions = RVM microinjection, 60 ng, naloxone 10 mg/kg sc, added: CCK-8 sulfate 30 ng; quantity = paw withdrawal latency; value = 20.1 s
SMILES = CSCC[C@H](NC(=O)[C@H](CC(C)C)NC(=O)[C@H](CCCCN)NC(=O)[C@H](CCC(N)=O)NC(=O)[C@H](CCCNC(=N)N)NC(=O)[C@H](CCCCN)NC(=O)[C@H](CCCNC(=N)N)NC(=O)[C@H](CCC(N)=O)NC(=O)[C@@H](N)C(C)C)C(=O)N1CCC[C@H]1C(=O)O; target or system = human importin alpha4; test = pull-down with immobilized compound; test system = Jurkat cell lysate; conditions = concentration not given, added: 300 µM unlabelled peptide; quantity = competition of binding; value = ~20%
SMILES = O=C(CSc1nccn1C1CCCCC1)Nc1cc(C(F)(F)F)ccc1Cl; target or system = Plasmodium falciparum; test = parasite growth, SYBR Green; test system = 3D7 wild type; conditions = 72 h; quantity = EC50; value = 217 ± 84 nM
SMILES = Cc1nc2c(C(=O)N(C)Cc3ccccc3)c[nH]n2c(=O)c1Cc1ccc(Cl)cc1; target or system = dengue virus 2; test = viral replication, single-cycle viral yield; test system = New Guinea C; conditions = 5 µM; quantity = inhibition; value = 20%

Repeated from above:
SMILES = CCCCCCCCCCCCCC#CC(=O)O; target or system = Plasmodium berghei; test system = Huh-7; conditions = 2 h post-infection, liver stage, luciferase reporter; quantity = IC50; value = 0.48 µg/mL
SMILES = CC/C=C\C/C=C\CCC/C=C/C=C/C=C\CCCC(=O)O; target or system = HL-60 (p53-null); test = cell growth, MTT; conditions = 24 h; quantity = LD50; value = 12.5 µM
SMILES = N#Cc1c(-c2ccc(Cl)cc2Cl)n(-c2nc(-c3ccc(Cl)cc3)c3c(NC(=O)c4ccccc4)nnc-3[nH]2)[nH]c1=O; target or system = HL-60(TB); conditions = 10 µM; quantity = cell growth; value = 7.37%
